{"data": "Measurements from different studies", "note": "Each numbered part is a random draw from the data of one study; scales do not carry over between parts. Values joined by “and” are separate records of one study, mostly repeats; a detail may differ."}
{"data": "Set 1", "target": "Histone acetyltransferase KAT6A, winged helix 1, GST fusion (KAT6A, Homo sapiens, UniProt Q92794, residues 1-85)", "method": "protein binding microarray", "molecule type": "double-stranded DNA, one strand shown", "matrix": "in vitro", "tested at": "not given", "setting": "8-mer, flanks averaged, mean of 2 arrays, mostly near background", "baseline": "not given", "direction": "higher = stronger binding", "Target sequence (chain)": "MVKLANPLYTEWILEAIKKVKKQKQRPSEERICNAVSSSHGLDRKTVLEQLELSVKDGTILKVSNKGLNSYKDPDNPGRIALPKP"}
{"Oligonucleotide": "GCAAGTTA", "E-score": -0.0859}
{"Oligonucleotide": "AAGCTCAT", "E-score": -0.235}
{"Oligonucleotide": "AGATGCAC", "E-score": -0.0704}
{"Oligonucleotide": "CGTGATAA", "E-score": 0.0865}
{"Oligonucleotide": "CTCGGCAG", "E-score": 0.098}
{"data": "Set 2", "target": "Fragile X messenger ribonucleoprotein 1, C-terminal low-complexity region (Fmr1, Mus musculus, UniProt P35922)", "method": "RNA Bind-n-Seq", "molecule type": "RNA", "matrix": "in vitro", "tested at": "200 nM", "setting": "whole 134-nt RNA, ends assumed", "together with": "150 mM LiCl", "baseline": "input library", "direction": "higher = stronger binding", "all molecules": "7-deaza-guanosine replaces G"}
{"Oligonucleotide": "GGGAGUUCUACAGUCCGACGAUCCCUGUGCUACACAUCGUAUGUACCGAAUCGGGGAAAAAAGGGGAAAAAAGGGAAAAAAGGAAAGUAUUAUGUUACGCCGUUCGGAUCUGCUGGAAUUCUCGGGUGUCAAGG", "log2 enrichment": 0.373}
{"Oligonucleotide": "GGGAGUUCUACAGUCCGACGAUCUGGGAGGUUGAUUUUGUUUAUUUUUUUAGCUCAUUUCCAGGGGUGGGAAUUUUUUUUUAAUAUGUGUCAUGAAUAAAGUUGUUUUUGAAAUGGAAUUCUCGGGUGUCAAGG", "log2 enrichment": 0.352}
{"Oligonucleotide": "GGGAGUUCUACAGUCCGACGAUCGUCCUGUGCUACACAUCGUAUGUACCGAAUCGGGAAAGGGUUUUUGGGAAAAAAAGGGAAAGUAUUAUGUUACGCCGUUCGGAUCUGCACUGGAAUUCUCGGGUGUCAAGG", "log2 enrichment": -1.08}
{"Oligonucleotide": "GGGAGUUCUACAGUCCGACGAUCUGGGAGGUGGAUUUUGUUUAUUUUUUUAGCUCAUUUCCAGGGGUGGGAAUUUUUUUUAAAUAUGUGUCAUGAAUAAAGUUGUUUUUGAAAUGGAAUUCUCGGGUGUCAAGG", "log2 enrichment": -0.329}
{"data": "Set 3", "target": "Sal-like protein 4, full length isoform B (SALL4, Homo sapiens, UniProt Q9UJQ4-2, residues 1-616)", "method": "universal PBM", "molecule type": "double-stranded DNA, one strand shown", "matrix": "in vitro", "tested at": "not given", "setting": "8-mer, flanks averaged, mean of replicates", "direction": "higher = stronger binding"}
{"Oligonucleotide": "GGAAGGAA", "E-score": -0.0929}
{"Oligonucleotide": "AACTGGAT", "E-score": 0.00181}
{"Oligonucleotide": "GCCCTCAA", "E-score": -0.111}
{"Oligonucleotide": "AACCTTAT", "E-score": 0.206}
{"Oligonucleotide": "ACGAGAAA", "E-score": 0.092}
{"Oligonucleotide": "CATCGACC", "E-score": -0.137}
{"data": "Single results of other studies"}
{"Substance": "PhoQ, residues 284 288 289 292 302 303 SSTMSV", "target": "PhoP, residues 12 14 15 18 19 LWHCS (Escherichia coli, UniProt P23836)", "test": "Sort-seq, item: YFP reporter", "test system": "E. coli", "setting": "PhoQ-PhoP variant library, together with: 10 µM Mg2+", "scale": "baseline: high Mg2+ state, higher = stronger signaling", "measurement": "fold induction", "result": "14.5 and 7.03"}
{"note": "Repeated from above (set 2):"}
{"Oligonucleotide": "GGGAGUUCUACAGUCCGACGAUCGUCCUGUGCUACACAUCGUAUGUACCGAAUCGGGAAAGGGUUUUUGGGAAAAAAAGGGAAAGUAUUAUGUUACGCCGUUCGGAUCUGCACUGGAAUUCUCGGGUGUCAAGG", "log2 enrichment": -1.08}
{"Oligonucleotide": "GGGAGUUCUACAGUCCGACGAUCUGGGAGGUGGAUUUUGUUUAUUUUUUUAGCUCAUUUCCAGGGGUGGGAAUUUUUUUUAAAUAUGUGUCAUGAAUAAAGUUGUUUUUGAAAUGGAAUUCUCGGGUGUCAAGG", "log2 enrichment": -0.329}
